Assay results collected from several papers.
pIC50: −log10 of the molar value.
Target: Phosphatidylinositol 4,5-bisphosphate 3-kinase catalytic subunit gamma isoform (PIK3CG, Homo sapiens, UniProt P48736)
Sequence of UniProt P48736 (whole entry, looked up): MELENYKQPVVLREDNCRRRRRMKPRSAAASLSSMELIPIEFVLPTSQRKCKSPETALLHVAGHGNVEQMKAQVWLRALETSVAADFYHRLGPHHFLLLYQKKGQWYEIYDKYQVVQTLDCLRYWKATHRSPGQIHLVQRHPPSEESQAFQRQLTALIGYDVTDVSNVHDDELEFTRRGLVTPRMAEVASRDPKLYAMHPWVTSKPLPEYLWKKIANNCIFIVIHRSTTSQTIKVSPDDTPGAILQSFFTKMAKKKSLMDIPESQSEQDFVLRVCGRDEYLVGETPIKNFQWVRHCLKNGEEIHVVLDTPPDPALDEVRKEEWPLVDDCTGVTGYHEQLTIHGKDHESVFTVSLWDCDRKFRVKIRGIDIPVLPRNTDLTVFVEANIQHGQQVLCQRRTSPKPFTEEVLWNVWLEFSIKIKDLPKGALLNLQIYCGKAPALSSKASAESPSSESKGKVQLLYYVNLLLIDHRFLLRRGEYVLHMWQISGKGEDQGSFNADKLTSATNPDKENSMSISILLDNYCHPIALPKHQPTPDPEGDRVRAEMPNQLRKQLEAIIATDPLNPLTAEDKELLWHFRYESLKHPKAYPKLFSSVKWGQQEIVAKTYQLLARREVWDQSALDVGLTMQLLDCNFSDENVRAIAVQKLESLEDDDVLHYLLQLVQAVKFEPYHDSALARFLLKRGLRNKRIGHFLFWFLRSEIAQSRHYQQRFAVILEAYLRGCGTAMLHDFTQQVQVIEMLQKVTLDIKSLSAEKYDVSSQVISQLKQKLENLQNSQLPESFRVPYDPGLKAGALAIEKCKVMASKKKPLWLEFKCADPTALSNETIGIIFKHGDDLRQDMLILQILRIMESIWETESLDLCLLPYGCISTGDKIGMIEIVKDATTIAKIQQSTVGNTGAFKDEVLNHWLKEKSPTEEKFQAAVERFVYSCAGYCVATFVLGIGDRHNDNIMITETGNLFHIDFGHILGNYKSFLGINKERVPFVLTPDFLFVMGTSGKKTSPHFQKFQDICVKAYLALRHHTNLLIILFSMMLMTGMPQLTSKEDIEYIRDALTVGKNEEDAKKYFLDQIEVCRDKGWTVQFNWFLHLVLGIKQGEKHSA

| Compound | test | pIC50 |
| --- | --- | --- |
| Cc1nc(N(C)c2ccc3c(c2)/C(=C/c2ccccc2C)C(=O)N3C)c2ccccc2n1 | enzyme activity, inhibitor, ADP detection | 7.12 |
| CCN(CC)CC(=O)Nc1cccc(-n2cc(-c3ccc4ccc(-c5cn(-c6cccc(NC(=O)CN(CC)CC)c6)nn5)cc4c3)nn2)c1 | enzyme activity, inhibitor | < 5.00 |
| O=C1Nc2c(Br)cccc2/C1=C1/Nc2ccccc2C1=NO | – | < 5.04 |
| CCc1ccc(/N=C2\C(=O)N(Cc3ccc([N+](=O)[O-])cc3)c3ccccc32)cc1 | enzyme activity, inhibitor, ADP detection | 8.13 |
| CC(=O)N1c2ccc(-c3ccc(CNC(=O)c4cn5cc(-c6cnc(N)nc6)nc(N6CCOCC6)c5n4)cc3)cc2CC[C@@H]1C | enzyme activity, inhibitor | 6.03 |
| COc1ccccc1/C=C1\C(=O)N(C)c2ccc(Nc3nc(C)nc4ccccc34)cc21 | enzyme activity, inhibitor, ADP detection | 6.43 |
| CN1C(=O)/C(=N\c2ccc(Cl)cc2Br)c2ccccc21 | enzyme activity, inhibitor, ADP detection | 8.35 |
| Cc1nc(Nc2ccc3c(c2)/C(=C/c2c[nH]c4ccccc24)C(=O)N3)c2ccccc2n1 | enzyme activity, inhibitor, ADP detection | 7.01 |
| O=C1/C(=N\c2cccc(Cl)c2)c2ccccc2N1Cc1ccccc1 | enzyme activity, inhibitor, ADP detection | 8.22 |
| Cc1nn(-c2cccc(N)c2)c(=O)c2cnc(Nc3ccc(N4CCNCC4)cc3)nc12 | enzyme activity, inhibitor | < 5.00 |
